{"data": "Results pooled from the literature", "note": "Protocols differ between the studies behind these lines. Values joined by “and” are separate records of one study, mostly repeats; a detail may differ. ± marks the error that the study gave."}
{"SMILES": "O=C1[C@H](Cc2ccc(O)cc2)N2C(=O)CCN(C(=O)NCc3ccccc3)[C@H]2CN1Cc1cccc2ccccc12", "cell line": "HD-MB03", "assay": "cell growth", "setting": "DMSO", "measurement": "IC50", "value": "524 nM"}
{"SMILES": "CC(C)=CCC[C@@]1(C)C(CC[C@H]2[C@]3(C)CC[C@H](O)C(C)(C)O[C@H]3CC[C@@]2(C)O)=C(C)CC[C@H]1O", "cell line": "KB-C2 (P-gp overexpressing)", "assay": "drug efflux", "setting": "10 µM, 30 min", "measurement": "intracellular [3H]-paclitaxel remaining", "value": "82.7%"}
{"SMILES": "Nc1nc2[nH]cc(CCc3ccc(C(=O)N[C@@H](CCC(=O)O)C(=O)O)cc3)c2c(=O)[nH]1", "cell line": "HD-MB03", "assay": "cell growth", "setting": "168 h, single agent", "measurement": "IC50", "value": "57.7 nM"}
{"SMILES": "Cc1cc(Nc2ncc(Cl)c(Nc3ccccc3S(=O)(=O)C(C)C)n2)c(OC(C)C)cc1C1CCNCC1", "cell line": "CLB-BAR", "assay": "phosphoproteomics LC-MS/MS, item: ASAP3 phosphorylation", "setting": "200 nM, 60 min", "how to read": "relative to: untreated", "measurement": "log2 fold change", "value": -4}
{"SMILES": "CCc1cnc(N2CCC(c3nc(COc4ccc(-n5cnnn5)cc4)cs3)CC2)nc1", "cell line": "HEK293T", "assay": "RNA-seq, item: HSPA1A mRNA", "setting": "10 µM, 6 h", "how to read": "relative to: vehicle", "measurement": "log2 fold change", "value": -0.623}
{"SMILES": "NC(=O)C1CCN(C(=O)Cc2ccc(N(CCCO)Cc3cnc4nc(N)nc(N)c4n3)cc2)CC1", "cell line": "786-O", "assay": "high-content imaging, item: MitoTracker Red uptake", "setting": "10 µM", "measurement": "mitochondrial toxicity", "value": "-2.18 ± 13.9%"}
{"SMILES": "CC(=O)CC(c1ccccc1)c1c(O)c2ccccc2oc1=O (stereo not drawn)", "cell line": "double-gene knockout reporter cells", "assay": "GGCX-mediated carboxylation", "setting": "10 µM, together with: vitamin K 10 µM", "measurement": "reporter protein carboxylation", "value": "no effect"}
{"SMILES": "COc1cc(/C=C/C(=O)N2CCC=CC2=O)cc(OC)c1OC", "cell line": "MDA-MB-468", "assay": "quantitative RT-PCR, item: Caspase6", "setting": "30 µM, 8 h", "how to read": "relative to: untreated", "measurement": "mRNA level", "value": "82.1 ± 1.6%"}
{"SMILES": "CC(=O)N1CCCC(N2C(=O)c3cccc(N)c3C2=O)C1 (stereo not drawn)", "cell line": "RAW 264.7", "assay": "item: nitrite", "setting": "30 µM, together with: LPS", "measurement": "inhibition", "value": "19%"}
{"SMILES": "C[C@H](Nc1ccc2c(c1)OCCn1cc(N3C(=O)OC[C@H]3C(F)F)nc1-2)C(N)=O", "cell line": "NCI-H460", "assay": "cell growth, CellTiter-Glo", "setting": "120 h", "measurement": "Hill coefficient GR curve", "value": 0.555}
{"SMILES": "Cn1cc(Nc2nccc(-c3ccc4c(c3)CN(C3COC3)CC[C@H]4NC(=O)c3cn(C(C)(C)C)nn3)n2)cn1", "cell line": "human B cells", "setting": "100 nM, 64 h, stimulation-downregulated genes, together with: anti-IgM", "measurement": "number of upregulated genes", "value": 14}
{"SMILES": "C=CC1=C(C)c2cc3[n-]c(cc4nc(cc5[n-]c(cc1n2)c(C)c5C=C)C(C)=C4CCC(=O)O)c(CCC(=O)O)c3C.[Zn+2]", "cell line": "SH-SY5Y", "assay": "RNA-seq, item: RGS3 mRNA", "setting": "5 µM, 5 h", "how to read": "relative to: untreated cells", "measurement": "fold change", "value": 1.65}
{"SMILES": "Cc1cc(C)n(-c2nc(-c3ccc(Cl)cc3)c3c(NC(=O)c4ccccc4)nnc-3[nH]2)n1", "cell line": "SN12C", "assay": "SRB", "setting": "10 µM, NCI60 single-dose screen", "how to read": "relative to: untreated", "measurement": "cell growth", "value": "92.4%"}
{"SMILES": "CC[C@@]1(O)C(=O)OCc2c1cc1n(c2=O)Cc2cc3c(CN(C)C)c(O)ccc3nc2-1", "cell line": "primary rat hippocampal/cortical neuron-glia cultures", "setting": "1 µM, together with: 1 µM α-synuclein oligomers", "measurement": "reversal of trafficking deficit", "value": "9.63%"}
{"SMILES": "C=CCn1c(=O)c2cnc(Nc3ccc(N4CCN(C)CC4)cc3)nc2n1-c1ccc2c(n1)[C@@](O)(CC)CC2", "cell line": "Kuramochi", "assay": "flow cytometry, item: pHH3-γH2Ax+", "setting": "concentration not given", "measurement": "G2/M cells in subpopulation", "value": "3.2%"}
{"SMILES": "O=C(NOC[C@H](O)CO)c1ccc(F)c(F)c1Nc1ccc(I)cc1F", "cell line": "A-375", "setting": "0.03906 µM, 72 h", "measurement": "viability", "value": "91.4%"}
{"SMILES": "C[C@H]1Oc2cc(cnc2N)-c2c(nn(C)c2C#N)CN(C)C(=O)c2ccc(F)cc21", "cell line": "HD-MB03", "setting": "168 h", "measurement": "IC50", "value": "inactive"}
{"SMILES": "Cc1ncc([N+](=O)[O-])n1CC(O)CCl (stereo not drawn)", "cell line": "primary rat hippocampal/cortical neuron-glia cultures", "setting": "1 µM, together with: 1 µM α-synuclein oligomers", "measurement": "reversal of trafficking deficit", "value": "-13.1%"}
{"SMILES": "CCc1c2c(nc3ccc(O)cc13)-c1cc3c(c(=O)n1C2)COC(=O)[C@]3(O)CC", "cell line": "HD-MB03", "setting": "concentration not given, together with: ribociclib NG", "how to read": "relative to: ribociclib over DMSO", "measurement": "fold change in IC50", "value": 2.17}
{"SMILES": "O=C(C[C@@H](C(F)F)n1ccc(F)n1)N1CCC(O)(Cn2cnc3c(cnn3-c3ccc(F)cc3)c2=O)CC1", "cell line": "CHP-212 parental (wild-type USP7)", "assay": "annexin V-PI flow cytometry", "setting": "0.3 µM, 48 h", "measurement": "apoptotic cells (early plus late)", "value": "34.8% and 40.2% and 42% and 33.2% and 27.4% and 44.3%"}
{"SMILES": "COc1ccc(NC(=S)N/N=C/c2cccc3cc4ccccc4nc23)cc1", "cell line": "HeLa", "assay": "crystal violet staining", "setting": "48 h", "measurement": "concentration causing significant viability reduction", "value": "≥ 10 µM"}
{"SMILES": "CCn1cc(-c2cc(Cn3ccoc3=N)cc3c2CCN([C@@H](C)c2cc(OC)ccn2)C3=O)c(C(F)(F)F)n1", "cell line": "BXPC-3", "assay": "cell growth, inhibitor", "setting": "120 h", "measurement": "EC50", "value": "1310 nM"}
{"SMILES": "Cn1cc(-c2ccc(-c3cncc(Cl)c3N3CCC4(CCNC4=O)CC3)cc2)cn1", "cell line": "COLO 205", "assay": "gene expression, microarray, item: DRAM1 mRNA", "setting": "concentration not given, 2 h", "how to read": "relative to: untreated cells", "measurement": "log2 fold change", "value": 1.9}
{"SMILES": "Cl.Cl.NCCNS(=O)(=O)c1ccc(Cl)c2ccncc12", "cell line": "SK-OV-3", "assay": "ATP", "setting": "1 µM, 4 days, 3D U-bottom low-attachment", "how to read": "relative to: untreated", "measurement": "relative cell number", "value": "114%"}
{"SMILES": "O=C(/C=C/C=C/C=C/C1CCCCC1)NC1=C[C@@](O)(/C=C/C=C/C=C/C(=O)NC2=C(O)CCC2=O)[C@@H]2O[C@@H]2C1=O", "cell line": "NCI-H1048", "assay": "cell growth, CellTiter-Glo", "setting": "78 h", "measurement": "GI50", "value": "13600 nM"}
{"SMILES": "CCn1cc(-c2cc(Cn3ccnc3)cc3c2CCN([C@H](c2cc(OC)ccn2)C2CC2)C3=O)c(C(F)(F)F)n1", "cell line": "HGC-27", "assay": "cell growth, inhibitor", "setting": "120 h", "measurement": "EC50", "value": "14900 nM"}
{"SMILES": "CCc1cc2c(cc1N1CCC(N3CCOCC3)CC1)C(C)(C)c1[nH]c3cc(C#N)ccc3c1C2=O", "cell line": "HD-MB03", "assay": "cell growth", "setting": "168 h, DMSO", "measurement": "IC50", "value": "585 nM"}
{"SMILES": "Cc1cnc(NC2CCOCC2)nc1-n1cnc(C(=O)NC(CN)c2cc(F)cc(Cl)c2)c1 (stereo not drawn)", "cell line": "A-375", "assay": "flow cytometry", "setting": "1 µM, 72 h", "measurement": "sub-G0 cells", "value": "0%"}
{"SMILES": "O=C1c2ccncc2C(=O)c2c1[nH]c1ccccc21", "cell line": "pulmonary arterial smooth muscle cells, PAH patient", "assay": "increased", "setting": "concentration not given", "measurement": "phospho-Drp1 (Ser637) level", "value": "increased"}
{"SMILES": "CC(=O)Nc1cccc(-n2c(=O)n(C3CC3)c(=O)c3c(Nc4ccc(I)cc4F)n(C)c(=O)c(C)c32)c1", "cell line": "HD-MB03", "assay": "cell growth", "setting": "168 h, DMSO", "measurement": "IC50", "value": "17.1 nM"}
{"SMILES": "O=C(COC(=O)c1ccccc1Nc1cccc(C(F)(F)F)c1)NNS(=O)(=O)c1ccccc1", "cell line": "RAW264.7", "assay": "Western blot", "setting": "concentration not given, 72 h, unit not given, together with: LPS", "how to read": "relative to: control", "measurement": "mTOR protein level", "value": 0.437}
{"SMILES": "CCCCc1nc(Cl)c(CO)n1Cc1ccc(-c2ccccc2-c2nn[nH]n2)cc1", "cell line": "human PBMC", "assay": "RNA-seq, item: CARD9 mRNA", "setting": "10 µg/mL, 24 h", "how to read": "relative to: untreated control", "measurement": "log2 fold change", "value": -1.52}
{"SMILES": "C=Cc1c2[n-]c(c1C)/C=c1\\[n-]/c(c(C)c1C=C)=C\\c1[n-]c(c(CCC(=O)O)c1C)/C=c1\\[n-]c(c(C)c1CCC(=O)O)=C2.[Sn+4]", "cell line": "SH-SY5Y", "assay": "RNA-seq, item: IQGAP2 mRNA", "setting": "5 µM, 5 h", "how to read": "relative to: untreated cells", "measurement": "fold change", "value": 1.59}
{"SMILES": "COc1ncnc(C2CC2)c1-c1ncc2cnn(Cc3ccc(-c4nc(C(F)(F)F)cn4C(C)C)cc3)c2n1", "cell line": "CHP-212 resistant sublines, USP7 V517F heterozygous", "setting": "50 µM", "measurement": "viability", "value": "42%"}
{"SMILES": "c1ccc2[nH]ccc2c1", "cell line": "HCT-8", "assay": "RNA-seq, item: DDIT4", "setting": "concentration not given", "measurement": "mRNA level, LS mean", "value": "192 counts per million"}
{"SMILES": "CC(C)NCC(O)c1ccc(O)c(O)c1 (stereo not drawn)", "cell line": "mouse ventricular cardiomyocytes", "setting": "dose not given, 0.407 s", "measurement": "sarcomere length", "value": "1.79 µm"}
{"note": "Repeated from above:"}
{"SMILES": "CCn1cc(-c2cc(Cn3ccoc3=N)cc3c2CCN([C@@H](C)c2cc(OC)ccn2)C3=O)c(C(F)(F)F)n1", "cell line": "BXPC-3", "assay": "cell growth, inhibitor", "setting": "120 h", "measurement": "EC50", "value": "1310 nM"}
{"SMILES": "CC(=O)CC(c1ccccc1)c1c(O)c2ccccc2oc1=O (stereo not drawn)", "cell line": "double-gene knockout reporter cells", "assay": "GGCX-mediated carboxylation", "setting": "10 µM, together with: vitamin K 10 µM", "measurement": "reporter protein carboxylation", "value": "no effect"}
{"SMILES": "Cc1ncc([N+](=O)[O-])n1CC(O)CCl (stereo not drawn)", "cell line": "primary rat hippocampal/cortical neuron-glia cultures", "setting": "1 µM, together with: 1 µM α-synuclein oligomers", "measurement": "reversal of trafficking deficit", "value": "-13.1%"}
{"SMILES": "Cl.Cl.NCCNS(=O)(=O)c1ccc(Cl)c2ccncc12", "cell line": "SK-OV-3", "assay": "ATP", "setting": "1 µM, 4 days, 3D U-bottom low-attachment", "how to read": "relative to: untreated", "measurement": "relative cell number", "value": "114%"}
